Assay results of several laboratories.
Parts stem from different laboratories: compare values within a part only. Positions count from the first letter of the parent shown.

Sample 1 — technique: protein-binding microarray; form: double-stranded DNA, one strand shown; sample: in vitro; concentration: 940 nM top; setting: 60-bp whole probe; added: salmon DNA 0.4 mg/ml; relative to: random background probes; reading: higher = stronger binding; endpoint: fitted relative affinity; shared flanks, not repeated: GCCTAGCAC … GTCTTGATTCGCTTGACGCTGCTG
Target: Interferon regulatory factor 5, full length, phosphomimetic (IRF5, Homo sapiens, UniProt Q13568-2, residues 1-514, S451D/S453D/S456D/S462D)
TCAATTCGTCATTTCACACTGTGCTAG: 0.803 z-score
GCTTTTATGGTATTTTTTTCGTGCTAG: 1.27 z-score
TTAGAGTCCAGTTTCGATTAGTGCTAG: 8.12 z-score
TCAAATTGTCCTTTCACACTGTGCTAG: 0.585 z-score
TCATACTTGTGTCTAGAACTGTGCTAG: -0.0596 z-score
TCACCTCTTTCTTTGCTACTGTGCTAG: 1.34 z-score
TCAATCATCCGTTTCTTACTGTGCTAG: 0.976 z-score
ATAGGTATCGACTTTCGGTTAGTGCTA: 5.48 z-score
TTAGATTTCACTCTCGATTAGTGCTAG: 4.58 z-score
GACGGTATCTACTATCGGGACGTGCTA: 1.13 z-score
TTAGGTTTCGGGATCGGTTAGTGCTAG: 8.74 z-score
GACGGTTTCCTTATCCGGACGTGCTAG: 2.23 z-score
GACGGTTTCGTACTGGGGACGTGCTAG: 4.92 z-score
GACGTTCTCCTTTTCCTGACGTGCTAG: 1.43 z-score
TCAGGTTTCGACTATCGGTTAGTGCTA: 8.23 z-score
GACGAACTGAGACTGGACACGTGCTAG: -0.22 z-score
TTAGGTCACGGTTTCGGTTAGTGCTAG: 6.45 z-score
TCATCTTTATGCACTCTTACTGTGCTA: 0.94 z-score
GACGGACTGGCACTGGGGACGTGCTAG: -0.656 z-score
TTAGATTTCAGTCCCGATTAGTGCTAG: 1.01 z-score
GACGGTCTCCTTAGCCTGACGTGCTAG: -0.235 z-score
TTAGTTTTCCTTTCCCTTTAGTGCTAG: 2.56 z-score
TTAGATATCAGTCTCGATTGGTGCTAG: 2.97 z-score

Sample 2 — target: CCND3, cyclin fold, Cln2 fusion (human); technique: yeast growth competition, sequencing; sample: yeast; setting: weak parent motif; relative to: not given; reading: higher = stronger binding; endpoint: normalised enrichment score
Parent: GMNC docking peptide (human); KNAKRNLSSEFAN
R5F: 0.18
A3I: 0.377
L7C: -0.227
A12P: 0.261
S8N: 0.385
N6V: 0.0877
L7Y: 0.389
F11C: -0.03
F11M: 0.522
F11Y: 0.223
A3G: 0.31
S8V: 0.531
S8G: 0.491
F11A: 0.0788
A3R: 0.363
E10M: 0.0453
S9Y: 0.301
S8L: 0.278
R5T: 0.00192
R5N: 0.281
N6Y: -0.37
A12I: 0.327
N2T: 0.34

Sample 3 — technique: RNA Bind-n-Seq; form: RNA; sample: in vitro; concentration: 90 pmol; setting: 4-mer, random 30-nt RNA, single round; relative to: input library; reading: higher = stronger binding; endpoint: 4-mer enrichment
Target: ATP-dependent RNA helicase DDX3X, helicase core (DDX3X, Homo sapiens, UniProt O00571, residues 132-607)
Sequence of UniProt O00571 (132-607, looked up): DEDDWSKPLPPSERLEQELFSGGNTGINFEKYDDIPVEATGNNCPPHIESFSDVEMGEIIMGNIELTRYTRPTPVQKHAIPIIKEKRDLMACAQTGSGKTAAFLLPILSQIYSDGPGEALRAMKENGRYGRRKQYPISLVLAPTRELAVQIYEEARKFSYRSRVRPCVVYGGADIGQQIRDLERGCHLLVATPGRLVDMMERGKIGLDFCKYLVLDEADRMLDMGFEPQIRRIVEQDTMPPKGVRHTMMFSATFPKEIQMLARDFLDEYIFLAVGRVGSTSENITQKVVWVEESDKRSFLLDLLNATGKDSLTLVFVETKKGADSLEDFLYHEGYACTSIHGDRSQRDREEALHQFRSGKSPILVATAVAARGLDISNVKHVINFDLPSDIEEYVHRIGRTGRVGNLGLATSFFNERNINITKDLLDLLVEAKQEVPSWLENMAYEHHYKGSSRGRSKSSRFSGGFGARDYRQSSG
Added: 3 µM iPr-DMDA-PatA, 2 mM ADP, 2 mM phosphate
UAAC: 1.15 fold
CGCG: 0.768 fold
CCAC: 1.23 fold
ACGU: 0.917 fold
UUCU: 0.907 fold
CUUU: 0.865 fold
AGCC: 0.965 fold
GGAA: 1.37 fold
CGGC: 0.652 fold
CCAA: 1.22 fold
CCGA: 1.03 fold
ACAU: 1.06 fold
UAGC: 0.895 fold
CGAC: 1.02 fold
AGAC: 1.3 fold
AAGA: 1.75 fold
AGAA: 1.64 fold
UUUG: 0.972 fold
GCUC: 0.761 fold
CCGG: 0.769 fold
ACCC: 1.42 fold
GAGA: 1.56 fold
GUUC: 0.812 fold
AGCA: 1.05 fold
UGUU: 0.964 fold

Sample 4 — technique: RNAcompete; form: RNA; sample: in vitro; concentration: 20 nM; setting: 7-mer, probes averaged, single round; relative to: mean of 7-mers; reading: higher = stronger binding; endpoint: 7-mer Z-score
Target: PABPC1L2, full length, GST fusion (mouse, UniProt A0ABA7IW68)
Target sequence (chain): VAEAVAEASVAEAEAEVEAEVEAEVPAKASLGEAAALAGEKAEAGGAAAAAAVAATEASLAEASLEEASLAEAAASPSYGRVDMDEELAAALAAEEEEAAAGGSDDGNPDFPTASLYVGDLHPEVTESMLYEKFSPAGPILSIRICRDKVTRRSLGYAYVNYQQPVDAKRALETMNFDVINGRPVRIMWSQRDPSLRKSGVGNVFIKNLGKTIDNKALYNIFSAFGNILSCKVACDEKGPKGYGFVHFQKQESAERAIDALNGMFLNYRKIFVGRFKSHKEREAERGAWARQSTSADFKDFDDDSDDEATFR
CGGGCGG: 0.389
CCUUGUA: -0.209
ACAAGUA: 0.144
AGUUUGC: -0.387
UAUGUGU: -0.376
CGUACUU: -0.219
CCACCCC: -0.429
CGGCUCG: -0.338
CGUUUGA: -0.44
GUAAUUG: -0.0627
AACAAGA: 0.802
ACCGUCA: -0.18
UUAUGCU: -0.271
GGGACUU: 0.311
GUAGGCC: -0.0301
UUCGACG: -0.235
GGGUUUC: -0.342
GUCCGUA: -0.237
GGUUAAC: -0.112

Sample 5 — technique: universal PBM; form: double-stranded DNA, one strand shown; sample: in vitro; concentration: 600 nM; reading: higher = stronger binding; endpoint: E-score
Target: Sal-like protein 4, full length isoform A (SALL4, Homo sapiens, UniProt Q9UJQ4, residues 1-1053)
Sequence of UniProt Q9UJQ4 (whole entry, looked up): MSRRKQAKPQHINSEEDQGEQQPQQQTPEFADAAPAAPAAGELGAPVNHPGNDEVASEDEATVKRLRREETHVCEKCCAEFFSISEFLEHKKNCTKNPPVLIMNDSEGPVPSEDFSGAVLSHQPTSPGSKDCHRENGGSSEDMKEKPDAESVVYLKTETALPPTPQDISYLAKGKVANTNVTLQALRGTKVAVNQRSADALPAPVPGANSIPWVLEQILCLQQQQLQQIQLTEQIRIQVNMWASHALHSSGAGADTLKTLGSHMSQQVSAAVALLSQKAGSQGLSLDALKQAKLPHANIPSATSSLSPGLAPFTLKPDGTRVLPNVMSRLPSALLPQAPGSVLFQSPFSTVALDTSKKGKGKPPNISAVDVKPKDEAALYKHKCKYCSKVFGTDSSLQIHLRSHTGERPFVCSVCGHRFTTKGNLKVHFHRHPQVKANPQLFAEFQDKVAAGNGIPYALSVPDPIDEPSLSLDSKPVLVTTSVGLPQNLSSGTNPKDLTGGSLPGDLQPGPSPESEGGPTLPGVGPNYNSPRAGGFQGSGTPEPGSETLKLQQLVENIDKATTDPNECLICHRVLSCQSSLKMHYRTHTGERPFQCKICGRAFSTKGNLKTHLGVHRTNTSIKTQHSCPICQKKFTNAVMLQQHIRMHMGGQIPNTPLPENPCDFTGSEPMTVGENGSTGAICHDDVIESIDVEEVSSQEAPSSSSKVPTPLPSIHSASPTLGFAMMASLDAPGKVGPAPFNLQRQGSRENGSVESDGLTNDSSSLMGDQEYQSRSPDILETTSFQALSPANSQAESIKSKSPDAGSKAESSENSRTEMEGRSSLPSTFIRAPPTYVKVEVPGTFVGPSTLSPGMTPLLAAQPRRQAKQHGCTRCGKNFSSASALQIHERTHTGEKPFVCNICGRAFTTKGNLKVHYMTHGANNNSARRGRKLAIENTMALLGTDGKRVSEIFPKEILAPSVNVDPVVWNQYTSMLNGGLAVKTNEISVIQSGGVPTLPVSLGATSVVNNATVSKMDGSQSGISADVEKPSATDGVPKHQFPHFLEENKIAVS
Setting: 8-mer, flanks averaged, mean of replicates
CCTAACGA: 0.0889
GAGTCTTA: -0.0167
CCTTAGAC: 0.0175
ACGAGGAT: 0.049
ATTAGTGG: 0.114
GGCGACCA: -0.282
GGGTGTAA: -0.0201
AGACTGAC: -0.0736
AATGCAAG: 0.175
ATCGTCAG: 0.0574
AGCTGATG: -0.00294
GAATAATA: 0.379
CGCAACCG: -0.214
CACGTACC: -0.0723
CCTACCAG: -0.24
TCCAGAAA: 0.114
AATAGGCA: 0.214
AGCGAACA: -0.0401
GGCAAGCC: -0.279
AACCAGAC: -0.0561
TCACGTGA: 0.0779
ATACCGGA: 0.026
TTCGCCAA: 0.00224
ACACTAAA: 0.223
GCGACGTA: -0.135

Sample 6 — technique: DHFR PCA, deep sequencing; sample: yeast; added: (+)-ABA 1.4 µM; relative to: wild-type fitted maximum; reading: higher = stronger binding; endpoint: relative binding score
Target: ABI1, truncated, D143A, DHFR fusion (Arabidopsis thaliana)
Setting: methotrexate growth selection, single substitutions
Parent: PYL1, truncated, DHFR fusion (Arabidopsis thaliana); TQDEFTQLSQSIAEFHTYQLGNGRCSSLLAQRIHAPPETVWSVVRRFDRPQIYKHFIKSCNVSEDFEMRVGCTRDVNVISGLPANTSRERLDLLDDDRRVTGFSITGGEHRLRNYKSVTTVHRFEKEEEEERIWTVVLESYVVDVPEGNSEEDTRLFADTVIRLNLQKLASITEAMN
S63T: 45.3%
V40S: 9.09%
I105N: -17.7%
Q7M: 73.3%
F103M: 8.65%
E152K: 25.8%
T86G: 31%
D159M: -18.2%
E152V: 23.7%
K126I: 60.7%
E14G: -1.48%
I162R: 17.8%
N114A: 2.85%
N85K: 82.4%
C72W: 11.9%
V137F: 1.16%
C60L: 5.35%
Y115I: -2.38%

For quick reference, copied from above (sample 3):
CGCG: 0.768 fold
CGGC: 0.652 fold
CCAC: 1.23 fold
ACGU: 0.917 fold
GAGA: 1.56 fold
AGCC: 0.965 fold
UUUG: 0.972 fold
ACAU: 1.06 fold
